# Experimental data collected from several papers.
# Lines come from different studies, so protocols differ. “And” joins repeats or separate records; there may be more than shown. Numbers after ± are the reported error.
# B1: CSRP2; sequence looked up; chain MPVWGGGNKCGACGRTVYHAEEVQCDGRSFHRCCFLCMVCRKNLDSTTVAIHDEEIYCKSCYGKKYGPKGYGYGQGAGTLNMDRGERLGIKPESVQPHRPTTNPNTSKFAQKYGGAEKCSRCGDSVYAAEKIIGAGKPWHKNCFRCAKCGKSLESTTLTEKEGEIYCKGCYAKNFGPKGFGYGQGAGALVHAQ
# B2: desmocollin-1; sequence looked up; chain RWAPIPASLMENSLGPFPQHVQQIQSDAAQNYTIFYSISGPGVDKEPFNLFYIEKDTGDIFCTRSIDREKYEQFALYGYATTADGYAPEYPLPLIIKIEDDNDNAPYFEHRVTIFTVPENCRSGTSVGKVTATDLDEPDTLHTRLKYKILQQIPDHPKHFSIHPDTGVITTTTPFLDREKCDTYQLIMEVRDMGGQPFGLFNTGTITISLEDENDNPPSFTETSYVTEVEENRIDVEILRMKVQDQDLPNTPHSKAVYKILQGNENGNFIISTDPNTNEGVLCVVKPLNYEVNRQVILQVGVINEAQFSKAASSQTPTMCTTTVTVKIIDSDEGPECHPPVKVIQSQDGFPAGQELLGYKALDPEISSGEGLRYQKLGDEDNWFEINQHTGDLRTLKVLDRESKFVKNNQYNISVVAVDAVGRSCTGTLVVHLDDYNDHAPQIDKEVTICQNNEDFAVLKPVDPDGPENGPPFQFFLDNSASKNWNIEEKDGKTAILRQRQNLDYNYYSVPIQIKDRHGLVATHMLTVRVCDCSTPSECRMKDKSTRDVRPNVILGRWAILAMVLGSVLLLCILFTCFCVTAKRTVKKCFPEDIAQQNLIVSNTEGPGEEVTEANIRLPMQTSNICDTSMSVGTVGGQGIKTQQSFEMVKGGYTLDSNKGGGHQTLESVKGVGQGDTGRYAYTDWQSFTQPRLGEKVYLCGQDEEHKHCEDYVCSYNYEGKGSLAGSVGCCSDRQEEEGLEFLDHLEPKFRTLAKTCIKK
# B3: cystatin B; sequence looked up; chain MMCGAPSATQPATAETQHIADQVRSQLEEKENKKFPVFKAVSFKSQVVAGTNYFIKVHVGDEDFVHLRVFQSLPHENKPLTLSNYQTNKAKHDELTYF
# B4: desmoglein-1; sequence looked up; chain EWIKFAAACREGEDNSKRNPIAKIHSDCAANQQVTYRISGVGIDQPPYGIFVINQKTGEINITSIVDREVTPFFIIYCRALNSMGQDLERPLELRVRVLDINDNPPVFSMATFAGQIEENSNANTLVMILNATDADEPNNLNSKIAFKIIRQEPSDSPMFIINRNTGEIRTMNNFLDREQYGQYALAVRGSDRDGGADGMSAECECNIKILDVNDNIPYMEQSSYTIEIQENTLNSNLLEIRVIDLDEEFSANWMAVIFFISGNEGNWFEIEMNERTNVGILKVVKPLDYEAMQSLQLSIGVRNKAEFHHSIMSQYKLKASAISVTVLNVIEGPVFRPGSKTYVVTGNMGSNDKVGDFVATDLDTGRPSTTVRYVMGNNPADLLAVDSRTGKLTLKNKVTKEQYNMLGGKYQGTILSIDDNLQRTCTGTININIQSFGNDDRTNTEPNTKITTNTGRQESTSSTNYDTSTTSTDSSQVYSSEPGNGAKDLLSDNVHFGPAGIGLLIMGFLVLGLVPFLMICCDCGGAPRSAAGFEPVPECSDGAIHSWAVEGPQPEPRDITTVIPQIPPDNANIIECIDNSGVYTNEYGGREMQDLGGGERMTGFELTEGVKTSGMPEICQEYSGTLRRNSMRECREGGLNMNFMESYFCQKAYAYADEDEGRPSNDCLLIYDIEGVGSPAGSVGCCSFIGEDLDDSFLDTLGPKFKKLADISLGKESYPDLDPSWPPQSTEPVCLPQETEPVVSGHPPISPHFGTTTVISESTYPSGPGVLHPKPILDPLGYGNVTVTESYTTSDTLKPSVHVHDNRPASNVVVTERVVGPISGADLHGMLEMPDLRDGSNVIVTERVIAPSSSLPTSLTIHHPRESSNVVVTERVIQPTSGMIGSLSMHPELANAHNVIVTERVVSGAGVTGISGTTGISGGIGSSGLVGTSMGAGSGALSGAGISGGGIGLSSLGGTASIGHMRSSSDHHFNQTIGSASPSTARSRITKYSTVQYSK
# B5: C19orf43 protein; sequence looked up; chain MAARGRRAEPQGREAPGPAGGGGGGSRWAESGSGTSPESGDEEVSGAGSSPVSGGVNLFANDGSFLELFKRKMEEEQRQRQEEPPPGPQRPDQSAAAAGPGDPKRKGGPGSTLSFVGKRRGGNKLALKTGIVAKKQKTEDEVLTSKGDAWAKYMAEVKKYKAHQCGDDDKTRPLVK
Molecule,tested on,test,system,setting,how to read,measurement,value
GWTLNSAGYLLGPHAVDNHRSFNDKHGFT-NH2 (C-amide),,,"peptide, mouse, DSS-induced colitis","ip, 1.5 µM",,colon length,5.9 cm and 6.1 cm
KLPQLCTEL,HN12 (HLA-A2+ HPV+),111In release,peptide,"concentration not given, 16 h, E:T 25:1 IVS 5, added: peptide-generated T-cell line",,specific lysis,16.5%
aspterric acid,,hypocotyl length,Arabidopsis thaliana Col-0 seeds,"3.125 µg/mL, seed germination",baseline: water control,inhibition,22.6%
dynein light chain LC8-type 1,,"peptide binding, SILAC pull-down",,concentration not given,baseline: non-acetylated over acetylated NIT1 peptide,log2 fold change,-0.36
CEMDGQCKRDLKCCMGMCGKSCVSPVKA,p38 MAPK (mouse),Western blot,"peptide, RAW264.7","concentration not given, 6 h pretreatment, added: LPS for 30 min",,p-p38/p38 ratio,0.37 ± 0.05
B1 (CSRP2),,"peptide binding, SILAC pull-down",,concentration not given,baseline: non-acetylated over acetylated NIT1 peptide,log2 fold change,-0.545
GWTLNSAGYLLGPRRIDHLLMIKEMPIARGREEAPGA / YAVDNHRSFNDKHGFT-NH2 (C-amide),,,"mouse, DSS-induced colitis","ip, 0.75 µM",,colon length,5.5 cm and 6 cm and 6.5 cm and 6.1 cm and 5.6 cm
pertussis toxin,,"immunostaining, refers to: p-PKC","humanized UT (+/h+) mice, SAH model, meninges",dose not given,,phospho-PKC level,42.2 MFI and 37.5 MFI and 67.5 MFI
RPVFSSPPS,Mamu-B*08301 MHC class I,peptide binding,"peptide, Chinese rhesus macaque",,,IC50,> 20 µM
DDDIAALVVDNGSGMCK (beta-actin),,"peptide binding, SILAC pull-down",,concentration not given,baseline: non-acetylated over acetylated NIT1 peptide,log2 fold change,0.183
(−)-antroquinonol A,A549,"cytotoxicity, MTS",,,,IC50,13.7 µM and 15.3 µM
B2 (desmocollin-1),,"peptide binding, SILAC pull-down",,concentration not given,baseline: non-acetylated over acetylated NIT1 peptide,log2 fold change,0.648
colistin,Aspergillus fumigatus,,solid minimal medium,"50 µM, 4 d",baseline: untreated control,radial growth ratio,0.867 and 0.847 and 0.838
ETTLKSF,Plasmodium falciparum,merozoite invasion,"peptide, 3D7 wild type",saturating concentrations,,maximal inhibition,≤ 48%
RTLEDLLMGT,HN-30 (HLA-A2− HPV+),111In release,peptide,"concentration not given, 16 h, E:T 25:1 IVS 5, added: peptide-generated T-cell line",,specific lysis,6.4%
nonaarginine,PorA peptide pore,"peptide binding, planar bilayer single-channel recording",,"0.5 µM, pH 7.4, +40 mV, trans side, 150 mM KCl",,kon,3e+07 ± 3e+06 M⁻¹ s⁻¹
CCT3,,"peptide binding, SILAC pull-down",,concentration not given,baseline: non-acetylated over acetylated NIT1 peptide,log2 fold change,1.86
EVVPGFQAL,Mamu-A1*02601 MHC class I,peptide binding,"peptide, Chinese rhesus macaque",,,IC50,> 20 µM
B3 (cystatin B),,"peptide binding, SILAC pull-down",,concentration not given,baseline: non-acetylated over acetylated NIT1 peptide,log2 fold change,-0.522
Met-enkephalin-Arg-Phe,,"antinociception, hot plate",male ICR-CD1 mice,"intracerebroventricular, 50 µg/animal, 30 min",,maximum possible effect,8.72% and 15.3% and 6.36% and -6.65% and -8.91% and 9.41% and 6.14% and -2.18%
B4 (desmoglein-1),,"peptide binding, SILAC pull-down",,concentration not given,baseline: non-acetylated over acetylated NIT1 peptide,log2 fold change,-0.689
lead,glioblastoma,CCK-8,,"2.5 µM, 24 h, unit not given",baseline: untreated control,viability,0.71
RKAKIIKDY,Mamu-B*08301 MHC class I,peptide binding,"peptide, Chinese rhesus macaque",,,IC50,> 20 µM
Polymyxin B,Escherichia coli,broth microdilution,E27 clinical isolate,20 h,,MIC,2 µg/mL
hexaarginine,PorA peptide pore,"peptide binding, planar bilayer single-channel recording",,"0.5 µM, pH 7.4, -15 mV, cis side, 150 mM KCl",,koff,2500 ± 250 s⁻¹
B5 (C19orf43 protein),,"peptide binding, SILAC pull-down",,concentration not given,baseline: non-acetylated over acetylated NIT1 peptide,log2 fold change,-0.685
PKYVKQNTLKLAT,stimulated healthy donor PBMCs,"combinatorial multi-epitope tetramer staining, refers to: DRB1*01:01 tetramer",peptide,concentration not given,baseline: CD4 T cells,antigen-specific CD4 T cells,1.58%
insulin human,,refers to: PTGS2 mRNA,"uninfected mouse, brain","i.p., dose not given",baseline: PBS,fold change,1.13
YMLDLQPET,Ca-Ski (HLA-A2+ HPV+),111In release,peptide,"concentration not given, 16 h, E:T 25:1 IVS 5, added: peptide-generated T-cell line",,specific lysis,39.8%
thiostrepton,Enterococcus faecium,,vancomycin-susceptible,,,MIC,0.06 µg/mL
Polymyxin B,Escherichia coli,"broth microdilution, MH medium",carbapenem-resistant NCCP 16284,"16 h, 37 °C",,MIC,4 µM

# Repeated from above:
Molecule,tested on,test,system,setting,how to read,measurement,value
aspterric acid,,hypocotyl length,Arabidopsis thaliana Col-0 seeds,"3.125 µg/mL, seed germination",baseline: water control,inhibition,22.6%
dynein light chain LC8-type 1,,"peptide binding, SILAC pull-down",,concentration not given,baseline: non-acetylated over acetylated NIT1 peptide,log2 fold change,-0.36
CEMDGQCKRDLKCCMGMCGKSCVSPVKA,p38 MAPK (mouse),Western blot,"peptide, RAW264.7","concentration not given, 6 h pretreatment, added: LPS for 30 min",,p-p38/p38 ratio,0.37 ± 0.05
